Assay results from different studies.
Parts stem from different laboratories: compare values within a part only. Substitutions count along the parent as printed.

Set 1
Target: ABI1, truncated, D143A, DHFR fusion (Arabidopsis thaliana)
Method: DHFR PCA, deep sequencing
Medium: yeast
Notes: methotrexate growth selection, single substitutions
With: (+)-ABA 1.4 µM
Baseline: wild-type fitted maximum
Direction: higher = stronger binding
Starting sequence: PYL1, truncated, DHFR fusion (Arabidopsis thaliana); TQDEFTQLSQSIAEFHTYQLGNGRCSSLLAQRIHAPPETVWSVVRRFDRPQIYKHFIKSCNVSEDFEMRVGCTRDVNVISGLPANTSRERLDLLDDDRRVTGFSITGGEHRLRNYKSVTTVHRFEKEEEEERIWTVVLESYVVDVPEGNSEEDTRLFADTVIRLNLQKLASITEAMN
Substitution | relative binding score
Y53A | -7.51%
S140Y | 4.42%
R99T | 7.97%
D144F | -28.6%
S9F | 17.6%
T17V | 12.4%
E89F | 0.448%
R132T | 80.7%
K58V | -3.59%

Set 2
Target: CCNB1, cyclin fold, Cln2 fusion (human)
Method: yeast growth competition, sequencing
Medium: yeast
Notes: strong parent motif
Baseline: not given
Direction: higher = stronger binding
Starting sequence: E2F1 docking peptide (human); PPVKRRLDFETDH; partner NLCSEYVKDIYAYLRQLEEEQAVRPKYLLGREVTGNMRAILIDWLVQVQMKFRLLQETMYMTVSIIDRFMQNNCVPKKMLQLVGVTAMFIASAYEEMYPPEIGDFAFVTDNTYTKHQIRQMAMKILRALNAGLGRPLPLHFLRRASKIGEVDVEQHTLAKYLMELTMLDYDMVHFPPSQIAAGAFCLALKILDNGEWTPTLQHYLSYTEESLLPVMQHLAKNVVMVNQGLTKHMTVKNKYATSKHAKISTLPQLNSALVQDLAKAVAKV
Substitution | normalised enrichment score
V3L | 3.52
E10N | 5.17
D8I | 4.15
E10V | 4.05
L7P | 0.0633
D12N | 5.06
F9A | 0.305
F9W | 2.51
E10T | 4.73

Set 3
Target: Prothrombin, mature alpha-thrombin (F2, Homo sapiens, UniProt P00734)
Method: aptamer microarray, sandwich
Form: DNA with 2'F-ANA
Medium: in vitro
Concentration: 200 nM
Notes: whole 15-mer aptamer, many near background
With: Cy3 exosite-II aptamer, 400 nM
Direction: higher = stronger binding
Strand: GGTTGGTGTGGTTGG
Modification | mean fluorescence intensity [a.u.]
2'F-ANA at 2 3 4 7 9 13 15 | 447
2'F-ANA at 1 5 8 9 11 | 57.2
2'F-ANA at 2 3 4 5 7 8 9 13 15 | 61.3
2'F-ANA at 1 3 4 5 8 9 14 15 | 46.4
2'F-ANA at 4 5 11 12 13 14 | 46.8
2'F-ANA at 1 3 5 6 7 8 10 11 13 15 | 48.8
2'F-ANA at 1 2 3 4 8 9 10 11 12 15 | 73.4
2'F-ANA at 3 4 5 6 8 9 11 | 80

Other studies, line by line
Substance | target | test | test system | conditions | scale | endpoint | result
PhoQ, residues 284 288 289 292 302 303 AEGLLW | PhoP, residues 12 14 15 18 19 LYFRQ (Escherichia coli, UniProt P23836) | Sort-seq, refers to: YFP reporter | E. coli | PhoQ-PhoP variant library, with: 10 µM Mg2+ | baseline: high Mg2+ state, higher = stronger signaling | fold induction | 12.4

For quick reference, copied from above (set 2):
Substitution | normalised enrichment score
V3L | 3.52
E10N | 5.17
D8I | 4.15
E10V | 4.05
L7P | 0.0633
